Results collected from several papers.
± gives the spread as reported.
UniProt Q9Y294, sequence (whole entry, looked up): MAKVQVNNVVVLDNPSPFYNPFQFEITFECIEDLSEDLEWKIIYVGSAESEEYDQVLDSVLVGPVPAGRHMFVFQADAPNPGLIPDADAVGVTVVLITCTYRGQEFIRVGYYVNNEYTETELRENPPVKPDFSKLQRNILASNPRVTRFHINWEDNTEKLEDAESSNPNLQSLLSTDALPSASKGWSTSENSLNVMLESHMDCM
UniProt P00691, sequence (whole entry, looked up): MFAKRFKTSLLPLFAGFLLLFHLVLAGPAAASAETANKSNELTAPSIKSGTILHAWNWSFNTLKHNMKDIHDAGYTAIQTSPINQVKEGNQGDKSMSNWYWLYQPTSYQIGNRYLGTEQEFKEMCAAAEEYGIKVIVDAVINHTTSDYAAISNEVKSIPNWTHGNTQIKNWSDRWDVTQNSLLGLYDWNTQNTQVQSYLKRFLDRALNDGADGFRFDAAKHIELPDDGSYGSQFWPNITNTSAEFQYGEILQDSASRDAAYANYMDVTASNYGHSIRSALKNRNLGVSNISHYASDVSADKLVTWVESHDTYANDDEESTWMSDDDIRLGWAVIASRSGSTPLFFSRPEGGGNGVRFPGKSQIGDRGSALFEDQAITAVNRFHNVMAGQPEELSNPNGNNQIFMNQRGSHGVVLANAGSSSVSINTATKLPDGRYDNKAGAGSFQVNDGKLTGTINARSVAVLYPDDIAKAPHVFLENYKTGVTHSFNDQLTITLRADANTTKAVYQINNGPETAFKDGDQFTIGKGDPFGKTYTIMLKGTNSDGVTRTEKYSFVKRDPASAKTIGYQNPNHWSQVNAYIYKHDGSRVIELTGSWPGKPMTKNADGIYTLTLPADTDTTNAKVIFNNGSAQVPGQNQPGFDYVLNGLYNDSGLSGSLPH
UniProt Q9NZC7, sequence (whole entry, looked up): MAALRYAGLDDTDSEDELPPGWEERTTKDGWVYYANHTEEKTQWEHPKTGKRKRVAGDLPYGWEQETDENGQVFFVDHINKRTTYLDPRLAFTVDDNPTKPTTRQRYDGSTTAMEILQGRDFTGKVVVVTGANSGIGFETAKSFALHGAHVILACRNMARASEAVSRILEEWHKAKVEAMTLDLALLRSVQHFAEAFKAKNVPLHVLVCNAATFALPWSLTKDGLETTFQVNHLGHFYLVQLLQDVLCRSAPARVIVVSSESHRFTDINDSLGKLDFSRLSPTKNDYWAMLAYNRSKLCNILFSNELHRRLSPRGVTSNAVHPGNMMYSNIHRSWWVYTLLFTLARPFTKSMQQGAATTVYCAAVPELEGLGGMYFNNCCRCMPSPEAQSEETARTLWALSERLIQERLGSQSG
UniProt P22455, sequence (whole entry, looked up): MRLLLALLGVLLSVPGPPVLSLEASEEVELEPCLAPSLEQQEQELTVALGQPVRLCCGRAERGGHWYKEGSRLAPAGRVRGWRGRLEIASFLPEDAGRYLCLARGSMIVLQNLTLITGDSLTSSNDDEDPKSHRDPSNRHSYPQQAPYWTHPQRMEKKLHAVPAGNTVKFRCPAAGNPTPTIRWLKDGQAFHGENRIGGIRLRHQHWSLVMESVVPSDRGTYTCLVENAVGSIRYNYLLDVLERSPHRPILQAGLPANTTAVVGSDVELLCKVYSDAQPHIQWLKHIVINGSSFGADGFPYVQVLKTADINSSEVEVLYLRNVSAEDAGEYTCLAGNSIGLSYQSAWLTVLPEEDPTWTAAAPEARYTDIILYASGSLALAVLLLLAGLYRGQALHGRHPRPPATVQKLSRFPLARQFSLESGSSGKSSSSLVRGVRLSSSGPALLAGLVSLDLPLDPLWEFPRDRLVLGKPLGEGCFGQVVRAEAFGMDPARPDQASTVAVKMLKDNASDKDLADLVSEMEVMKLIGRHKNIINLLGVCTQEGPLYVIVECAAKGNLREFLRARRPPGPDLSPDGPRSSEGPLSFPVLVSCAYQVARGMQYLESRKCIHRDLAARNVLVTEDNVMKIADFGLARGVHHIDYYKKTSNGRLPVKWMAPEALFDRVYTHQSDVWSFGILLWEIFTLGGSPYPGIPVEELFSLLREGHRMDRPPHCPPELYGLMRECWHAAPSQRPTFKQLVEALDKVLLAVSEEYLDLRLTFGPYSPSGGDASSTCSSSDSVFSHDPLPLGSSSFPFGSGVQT
UniProt P12004, sequence (whole entry, looked up): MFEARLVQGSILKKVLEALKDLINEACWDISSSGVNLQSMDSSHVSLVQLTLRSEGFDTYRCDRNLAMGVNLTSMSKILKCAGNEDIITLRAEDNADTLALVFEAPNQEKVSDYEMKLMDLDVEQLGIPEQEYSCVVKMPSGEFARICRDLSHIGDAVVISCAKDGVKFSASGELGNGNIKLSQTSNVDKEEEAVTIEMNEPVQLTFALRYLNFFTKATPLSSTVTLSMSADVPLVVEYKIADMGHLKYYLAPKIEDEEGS
UniProt Q07741, sequence (whole entry, looked up): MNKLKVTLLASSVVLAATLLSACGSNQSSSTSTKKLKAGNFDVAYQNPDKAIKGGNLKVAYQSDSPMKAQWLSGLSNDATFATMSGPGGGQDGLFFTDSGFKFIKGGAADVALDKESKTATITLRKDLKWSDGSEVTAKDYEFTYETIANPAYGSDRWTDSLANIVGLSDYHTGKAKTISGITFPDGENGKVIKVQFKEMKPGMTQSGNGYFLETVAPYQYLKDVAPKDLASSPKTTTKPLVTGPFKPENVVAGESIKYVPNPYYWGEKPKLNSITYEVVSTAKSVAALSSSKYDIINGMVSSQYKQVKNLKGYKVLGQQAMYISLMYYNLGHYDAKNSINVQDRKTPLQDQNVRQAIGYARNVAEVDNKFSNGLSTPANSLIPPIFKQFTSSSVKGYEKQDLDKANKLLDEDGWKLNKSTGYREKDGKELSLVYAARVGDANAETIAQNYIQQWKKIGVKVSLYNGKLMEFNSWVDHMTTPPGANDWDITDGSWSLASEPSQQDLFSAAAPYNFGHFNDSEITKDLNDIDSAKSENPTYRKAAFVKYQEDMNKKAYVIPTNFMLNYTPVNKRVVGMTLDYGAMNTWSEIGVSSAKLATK
UniProt Q9FIP9, sequence (whole entry, looked up): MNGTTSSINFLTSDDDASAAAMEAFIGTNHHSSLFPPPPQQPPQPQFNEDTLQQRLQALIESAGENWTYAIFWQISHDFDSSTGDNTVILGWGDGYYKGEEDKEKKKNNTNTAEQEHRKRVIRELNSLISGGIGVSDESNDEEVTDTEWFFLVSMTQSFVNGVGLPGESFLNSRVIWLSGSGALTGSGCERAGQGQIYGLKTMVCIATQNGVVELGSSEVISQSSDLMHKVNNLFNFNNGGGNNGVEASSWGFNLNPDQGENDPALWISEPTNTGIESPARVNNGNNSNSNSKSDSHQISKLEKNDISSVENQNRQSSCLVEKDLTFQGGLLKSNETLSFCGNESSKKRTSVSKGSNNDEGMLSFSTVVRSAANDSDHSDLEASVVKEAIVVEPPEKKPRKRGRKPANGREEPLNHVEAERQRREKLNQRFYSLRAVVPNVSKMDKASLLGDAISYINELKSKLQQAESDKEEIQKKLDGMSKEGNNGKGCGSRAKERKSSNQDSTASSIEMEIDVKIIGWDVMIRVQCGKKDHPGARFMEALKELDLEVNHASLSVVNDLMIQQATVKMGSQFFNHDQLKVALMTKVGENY
UniProt P63165, sequence (whole entry, looked up): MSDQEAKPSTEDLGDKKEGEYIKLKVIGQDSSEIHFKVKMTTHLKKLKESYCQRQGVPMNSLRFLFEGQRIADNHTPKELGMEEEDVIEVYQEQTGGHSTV
UniProt O55242, sequence (whole entry, looked up): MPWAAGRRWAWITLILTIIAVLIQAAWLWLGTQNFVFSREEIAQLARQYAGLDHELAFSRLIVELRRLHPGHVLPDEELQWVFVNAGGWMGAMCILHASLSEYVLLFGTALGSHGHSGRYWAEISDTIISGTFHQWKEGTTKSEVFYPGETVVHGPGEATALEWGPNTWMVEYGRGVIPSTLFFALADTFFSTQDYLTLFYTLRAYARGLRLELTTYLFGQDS
UniProt P09622, sequence (whole entry, looked up): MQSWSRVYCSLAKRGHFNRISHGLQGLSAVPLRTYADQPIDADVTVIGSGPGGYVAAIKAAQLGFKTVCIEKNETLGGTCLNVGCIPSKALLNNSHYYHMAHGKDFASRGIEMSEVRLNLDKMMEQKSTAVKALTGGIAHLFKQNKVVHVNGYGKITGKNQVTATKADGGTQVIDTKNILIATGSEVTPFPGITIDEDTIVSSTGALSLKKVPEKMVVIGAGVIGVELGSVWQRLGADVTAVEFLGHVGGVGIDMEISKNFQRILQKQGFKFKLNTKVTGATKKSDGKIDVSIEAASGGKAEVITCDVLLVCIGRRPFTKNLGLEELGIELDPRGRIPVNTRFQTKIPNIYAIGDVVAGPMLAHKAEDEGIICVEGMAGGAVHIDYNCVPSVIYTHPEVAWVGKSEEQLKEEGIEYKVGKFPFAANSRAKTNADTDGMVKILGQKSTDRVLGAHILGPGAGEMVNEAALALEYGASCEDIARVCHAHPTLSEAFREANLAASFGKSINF
UniProt P41595, sequence (whole entry, looked up): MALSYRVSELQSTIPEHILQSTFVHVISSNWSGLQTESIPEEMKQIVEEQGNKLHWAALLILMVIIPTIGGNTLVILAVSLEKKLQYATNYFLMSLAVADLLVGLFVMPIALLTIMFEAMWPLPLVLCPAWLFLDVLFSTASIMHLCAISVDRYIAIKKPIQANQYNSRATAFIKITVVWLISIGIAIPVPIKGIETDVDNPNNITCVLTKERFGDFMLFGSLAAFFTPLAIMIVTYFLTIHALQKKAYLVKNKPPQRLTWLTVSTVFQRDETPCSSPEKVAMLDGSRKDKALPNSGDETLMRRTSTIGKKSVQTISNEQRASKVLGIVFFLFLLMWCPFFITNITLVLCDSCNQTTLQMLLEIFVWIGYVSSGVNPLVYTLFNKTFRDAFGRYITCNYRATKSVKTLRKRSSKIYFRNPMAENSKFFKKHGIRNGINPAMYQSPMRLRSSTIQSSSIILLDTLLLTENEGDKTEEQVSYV

Structure (SMILES) = CSCC[C@H](NC(C)=O)C(=O)N[C@H]1CSCc2cc3cc(c2)CSC[C@@H](C(=O)N[C@H](C(=O)N[C@@H](C)C(=O)N[C@@H](Cc2ccc(O)cc2)C(=O)N[C@@H](CCCCN)C(=O)N[C@@H](Cc2ccc(O)cc2)C(=O)NCC(=O)N[C@@H](CO)C(=O)NCC(=O)N[C@@H](CO)C(=O)NCC(=O)N[C@@H](CO)C(=O)N[C@@H](CC(=O)O)C(=O)N[C@@H](Cc2ccc(O)cc2)C(=O)N[C@@H](CCCCN)C(=O)N[C@@H](CC(=O)O)C(=O)N[C@@H](CC(=O)O)C(=O)N[C@@H](CC(=O)O)C(=O)N[C@@H](CC(=O)O)C(=O)N[C@@H](CCCCN)C(N)=O)[C@@H](C)O)NC(=O)[C@H](Cc2ccccc2)NC(=O)[C@H](CCCCN)NC(=O)[C@H](CSC3)NC(=O)[C@H](Cc2ccccc2)NC(=O)[C@H](CC(N)=O)NC(=O)[C@H](CC(C)C)NC(=O)[C@H]([C@@H](C)O)NC1=O; target = Fibroblast growth factor receptor 4 (FGFR4, Homo sapiens, UniProt P22455); assay = binding, BLI; Kd = 1.31 µM
Structure (SMILES) = CC[C@H](C)[C@H](NC(=O)[C@@H](NC(=O)[C@H](Cc1c[nH]c2ccccc12)NC(=O)[C@H](CCC(=O)O)NC(=O)[C@H](CO)NC(=S)Nc1ccc2c(c1)C(=O)OC21c2ccc(O)cc2Oc2cc(O)ccc21)C(C)C)C(=O)N[C@@H](C)C(=O)N[C@H](C(=O)N1CCC[C@H]1C(=O)N[C@@H](Cc1ccccc1)C(=O)N[C@@H](CC(C)C)C(=O)N[C@H](C(=O)N[C@@H](CC(N)=O)C(=O)N[C@@H](CC(C)C)C(=O)O)[C@@H](C)O)[C@@H](C)CC; target = Rgg transcriptional regulator (Streptococcus pneumoniae, UniProt A0A0E7KI02); assay = binder, fluorescence polarization; conditions = 20 min, pH 7.4, 20 °C, fluorescein-labelled peptide; Kd = 4 ± 0.8 µM
Structure (SMILES) = Cc1cc(S(=O)(=O)N(C)CC(=O)Nc2ccn(C)c(=O)c2)c2[nH]ncc2c1; target = Dihydrolipoyl dehydrogenase, mitochondrial (DLD, Homo sapiens, UniProt P09622); assay = binding, SPR; Kd = 7.6 µM
Structure (SMILES) = CC(C)C[C@H](NC(=O)[C@H](Cc1c[nH]c2ccccc12)NC(=O)[C@H](CCCCN)NC(=O)[C@H](CCC(=O)O)NC(=O)[C@@H]1CCCN1C(=O)[C@@H](N)CS)C(=O)NCC(=O)N[C@H](C(=O)N[C@@H](CS)C(=O)O)[C@@H](C)O; target = Small ubiquitin-related modifier 1 (Homo sapiens, UniProt P63165); assay = binding, ITC; Kd = 0.123 µM
Structure (SMILES) = I/C=C/CN1CCN(CCc2ccc3c(c2)CCO3)CC1 [iodine-123 labelled]; target = Sigma non-opioid intracellular receptor 1 (Sigmar1, Mus musculus, UniProt O55242); assay = saturation radioligand binding; test system = mouse brain membranes; conditions = 180 min, 37 °C; Kd = 0.00024 µM
Structure (SMILES) = Cc1cc(-c2ccc3ccccc3c2)nnc1NCCN1CCN(C)CC1; target = 5-hydroxytryptamine receptor 2B (HTR2B, Homo sapiens, UniProt P41595); assay = Gq activation, antagonist, Schild analysis; conditions = added: serotonin; Kd = 0.125 µM
Structure (SMILES) = CC(=O)NC1C(OC2C(O)C(CO)OC(OC3C(O)C(CO)OC(OC4C(O)C(O)OC(CO)C4O)C3NC(C)=O)C2OC2OC(C)C(O)C(O)C2O)OC(CO)C(O)C1O (stereo not drawn); target = sly, domain 4 (Streptococcus suis, UniProt Q55996); assay = binding; Kd = 9.2 µM
Structure (SMILES) = CN(C)CCCSC(=S)N1CCN(C(=O)/C=C/c2coc3ccccc3c2=O)CC1; target = Nucleoprotein (N, Tomato spotted wilt virus, UniProt P25999, R94A/Y184A); assay = binding, biolayer interferometry; conditions = mutant nucleocapsid protein; Kd = > 400 µM
Structure (SMILES) = N=C(N)NCCC[C@H](NC(=O)[C@H](Cc1ccccc1)NC(=O)[C@@H]1CCCN1C(=O)[C@H](CO)NC(=O)[C@H](Cc1ccccc1)NC(=O)CNC(=O)[C@@H]1CCCN1C(=O)[C@@H]1CCCN1C(=O)[C@@H](N)CCCNC(=N)N)C(=O)N[C@@H](CCCCNS(=O)(=O)c1ccc(C2=c3cc4c5c(c3Oc3c2cc2c6c3CCCN6CCC2)CCC[N+]=5CCC4)c(S(=O)(=O)[O-])c1)C(=O)O; target = Oligopeptide-binding protein OppA (oppA, Lactococcus lactis subsp. lactis, UniProt Q07741); assay = binding, fluorescence anisotropy; conditions = pH 6.5, 30 °C, added: dye-labelled peptide; Kd = 19 ± 1 µM
Structure (SMILES) = CCCCCCCCCCCCCC(=O)N[C@H](CCN)C(=O)N[C@@H]1C(=O)N[C@@H](CCN)C(=O)N[C@@H](CC(C)C)C(=O)N[C@@H](CCN)C(=O)N[C@H](Cc2ccccc2)C(=O)N[C@@H](CC(C)C)C(=O)N[C@@H](CCN)C(=O)N[C@H](CCN)C(=O)N[C@@H](C(C)C)C(=O)N[C@@H](CC(=O)O)C(=O)O[C@@H]1C; target = lipopolysaccharide; assay = binding, isothermal titration calorimetry; conditions = pH 7.4, 25 °C; Kd = 2.18 ± 0.82 µM
Structure (SMILES) = CC(C)C[C@H](NC(=O)[C@H](CCCNC(=N)N)NC(=O)[C@H](CCC(=O)O)NC(=O)[C@H](CCCCN)NC(=O)[C@H](CCCNC(=N)N)NC(=O)[C@H](CCCCN)NC(=O)[C@]1(C)CCCC=CCCC[C@](C)(NC(=O)[C@H](CC(C)C)NC(=O)[C@H](CO)NC(=O)[C@H](C)NC(=O)[C@H](CCCCN)NC(=O)[C@H](CCCNC(=N)N)NC(=O)[C@H](C)NC(=O)[C@H](CCC(N)=O)NC(=O)[C@@H]2CCCN2C(=O)[C@@H](NC(=O)[C@H](CO)NC(=O)c2ccc3c(c2)C(=O)OC32c3ccc(N(C)C)cc3Oc3cc(N(C)C)ccc32)C(C)C)C(=O)N[C@@H](CCCNC(=N)N)C(=O)N[C@@H](Cc2ccccc2)C(=O)N[C@@H](CC(C)C)C(=O)N1)C(=O)O; target = Transcription factor MYC3 (MYC3, Arabidopsis thaliana, UniProt Q9FIP9); assay = binding, fluorescence anisotropy; conditions = pH 8.0, apparent Kd, added: 100 nM TMR-labelled JAZ peptide; Kd = 0.88 ± 0.2 µM
Structure (SMILES) = CC(=O)N[C@H]1CC(=O)N[C@@H](Cc2ccccc2)C(=O)N[C@@H](CCCNC(=N)N)C(=O)N[C@H](C(=O)N[C@@H](CC(=O)O)C(=O)N[C@H](C(=O)N[C@@H](CCCNC(=N)N)C(=O)N[C@@H](C)C(=O)N[C@@H](CCC(=O)O)C(=O)N[C@@H](CCCNC(=N)N)C(=O)N[C@@H](C)C(=O)N[C@@H](CCC(=O)O)C(N)=O)C(C)C)CNC1=O; target = Amyloid-beta precursor protein, Aβ40 fibrils (APP, Homo sapiens, UniProt P05067); assay = isothermal titration calorimetry; test system = sodium phosphate buffer; conditions = pH 8, 25 °C, peptide titrated into protein; Kd = 2.9 µM
Structure (SMILES) = CC(C)P(=S)(NP(=[Se])(C(C)C)C(C)C)C(C)C; target = Alpha-amylase (Bacillus subtilis, UniProt P00691); assay = fluorescence quenching; conditions = 304 K; Kd = 1130 µM
Structure (SMILES) = CC[C@H](C)[C@H](NC(=O)[C@H](CCCNC(=N)N)NC(=O)[C@H](CCCNC(=N)N)NC(=O)[C@H](C)NC(=O)[C@H](CC(C)C)NC(=O)[C@H](CCCNC(=N)N)NC(=O)[C@H](C)NC(=O)[C@H](Cc1c[nH]c2ccccc12)NC(=O)[C@H](CCCCN)NC(=O)[C@H](CCC(=O)O)NC(C)=O)C(=O)N[C@@H](C)C(N)=O; target = Histone chaperone ASF1A (Homo sapiens, UniProt Q9Y294); assay = binding, ITC; conditions = pH 7.5; Kd = 0.27 µM
Structure (SMILES) = CC(C)C[C@H](NC(=O)[C@@H](NC(=O)[C@@H](NC(=O)CNC(=O)CNC(=O)CNC(=O)CNC(=O)CNC(=O)[C@H](CC(N)=O)NC(=O)[C@H](CCCNC(=N)N)NC(=O)[C@H](Cc1c[nH]cn1)NC(=O)[C@H](CCCNC(=N)N)NC(=O)[C@H](Cc1ccc(O)cc1)NC(=O)[C@@H]1CCCN1C(=O)[C@@H]1CCCN1C(=O)[C@@H]1CCCN1C(=O)[C@@H]1CCCN1C(=O)[C@H](CC(C)C)NC(=O)[C@@H](NC(=O)[C@@H](NC(=O)CN)[C@@H](C)O)C(C)C)[C@@H](C)O)C(C)C)C(=O)N1CCC[C@H]1C(=O)N1CCC[C@H]1C(=O)N1CCC[C@H]1C(=O)N1CCC[C@H]1C(=O)N[C@@H](Cc1ccc(O)cc1)C(=O)N[C@@H](CCCNC(=N)N)C(=O)N[C@@H](Cc1c[nH]cn1)C(=O)N[C@@H](CCCNC(=N)N)C(=O)N[C@@H](CC(N)=O)C(=O)O; target = WW domain-containing oxidoreductase, WW1-WW2 tandem domains (WWOX, Homo sapiens, UniProt Q9NZC7); assay = ITC; test system = tandem WW1-WW2 domain; conditions = pH 7.8, 20 °C, some values lower limits only; Kd = 3.1 ± 0.3 µM
Structure (SMILES) = CSCC[C@@H]1NC(=O)[C@H](CO)NC(=O)[C@@H](NC(=O)[C@H](CCC(N)=O)NC(=O)[C@H](CCCNC(=N)N)NC(C)=O)CSCc2cccc(c2)CSC[C@@H](C(=O)N[C@@H](Cc2ccccc2)C(=O)N[C@@H](Cc2ccc(O)cc2)C(=O)N[C@@H](Cc2c[nH]cn2)C(=O)N[C@@H](CO)C(=O)N[C@@H](CCCCN)C(N)=O)NC(=O)[C@H]([C@@H](C)O)NC1=O; target = Proliferating cell nuclear antigen (PCNA, Homo sapiens, UniProt P12004); assay = binding, SPR; Kd = 3.86 µM
Structure (SMILES) = CC[C@H](C)[C@H](NC(=O)[C@H](Cc1c[nH]cn1)NC(=O)[C@H](CCCCNC(=O)[C@@H](NC(=O)[C@H](CCCCN)NC(=O)CSC[C@H](NC(=O)[C@H](Cc1ccccc1)NC(=O)[C@H](CCCCNC(=O)[C@H](CC(C)C)NC(=O)[C@@H]1CCCN1C(=O)[C@H](CCCCN)NC(=O)C[C@@H]1O[C@@H](C)[C@@H](O)[C@@H](O)[C@@H]1O)NC(=O)[C@H](CC(C)C)NC(=O)[C@@H]1CCCN1C(=O)[C@H](CCCCN)NC(=O)c1ccc(O[C@@H]2O[C@H](CO)[C@H](O)[C@H](O)[C@H]2O)cc1)C(N)=O)[C@@H](C)CC)NC(=O)[C@@H](NC(=O)[C@H](CCCCN)NC(=O)CSC[C@H](NC(=O)[C@H](Cc1ccccc1)NC(=O)[C@H](CCCCNC(=O)[C@H](CC(C)C)NC(=O)[C@@H]1CCCN1C(=O)[C@H](CCCCN)NC(=O)C[C@@H]1O[C@@H](C)[C@@H](O)[C@@H](O)[C@@H]1O)NC(=O)[C@H](CC(C)C)NC(=O)[C@@H]1CCCN1C(=O)[C@H](CCCCN)NC(=O)c1ccc(O[C@@H]2O[C@H](CO)[C@H](O)[C@H](O)[C@H]2O)cc1)C(N)=O)[C@@H](C)CC)C(N)=O; target = PA-I galactophilic lectin (lecA, Pseudomonas aeruginosa, UniProt Q05097); assay = binding, ITC; conditions = pH 7.5; Kd = 0.075 µM
Structure (SMILES) = C=CCOC(=O)NCCC[C@@H](NC(=O)[C@H](CCCNC(=N)N)NC(=O)[C@H](C)NC(=O)[C@H](CCCNC(=N)N)NC(=O)CNC(=O)[C@H](CCCNC(=N)N)NC(=O)[C@@H](NC(=O)[C@@H](NC(=O)CNC(=O)[C@H](CC(C)C)NC(=O)[C@@H]1CCCN1C(=O)[C@H](CC(=O)O)NC(=O)[C@H](CO)NC(=O)[C@H](C)NC(=O)c1cc(-c2ccccc2)nc2ccccc12)C(C)C)C(C)C)C(N)=O; target = Klotho (Kl, Mus musculus, UniProt O35082); assay = BLI competition binding; conditions = 30 min, 30 °C, added: 100 nM mouse Klotho, immobilized Pep-10-Biotin; Kd = 0.0009 ± 0.0003 µM

A few entries again:
Structure (SMILES) = CCCCCCCCCCCCCC(=O)N[C@H](CCN)C(=O)N[C@@H]1C(=O)N[C@@H](CCN)C(=O)N[C@@H](CC(C)C)C(=O)N[C@@H](CCN)C(=O)N[C@H](Cc2ccccc2)C(=O)N[C@@H](CC(C)C)C(=O)N[C@@H](CCN)C(=O)N[C@H](CCN)C(=O)N[C@@H](C(C)C)C(=O)N[C@@H](CC(=O)O)C(=O)O[C@@H]1C; target = lipopolysaccharide; assay = binding, isothermal titration calorimetry; conditions = pH 7.4, 25 °C; Kd = 2.18 ± 0.82 µM
Structure (SMILES) = CC(=O)NC1C(OC2C(O)C(CO)OC(OC3C(O)C(CO)OC(OC4C(O)C(O)OC(CO)C4O)C3NC(C)=O)C2OC2OC(C)C(O)C(O)C2O)OC(CO)C(O)C1O (stereo not drawn); target = sly, domain 4 (Streptococcus suis, UniProt Q55996); assay = binding; Kd = 9.2 µM
